{"data": "Assay results collected from several papers", "note": "A part holds a random share of what one study measured."}
{"data": "Sample 1", "Molecule": "PhoQ, residues 284 288 289 292 302 303 ALVSVA", "technique": "Sort-seq", "measured": "YFP reporter", "medium": "E. coli", "notes": "PhoQ-PhoP variant library", "together with": "10 µM Mg2+", "relative to": "high Mg2+ state", "direction": "higher = stronger signaling"}
{"target": "PhoP, residues 12 14 15 18 19 QYFSL (Escherichia coli, UniProt P23836)", "fold induction": 11.1}
{"target": "PhoP, residues 12 14 15 18 19 NYFRM (Escherichia coli, UniProt P23836)", "fold induction": 11}
{"target": "PhoP, residues 12 14 15 18 19 TQALL (Escherichia coli, UniProt P23836)", "fold induction": 1.49}
{"data": "Sample 2", "target": "RNA binding protein fox-1 homolog 2, RRM domain, GST-SBP tag (RBFOX2, Homo sapiens, UniProt O43251-10, residues 100-194)", "technique": "RNA Bind-n-Seq", "molecule type": "RNA", "medium": "in vitro", "concentration": "365 nM", "notes": "natural RNA segment, single round, ends assumed", "relative to": "no-protein control", "direction": "higher = stronger binding", "Construct (chain)": "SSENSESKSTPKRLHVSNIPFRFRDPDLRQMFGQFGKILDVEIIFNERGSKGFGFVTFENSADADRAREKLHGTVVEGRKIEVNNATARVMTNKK"}
{"Oligonucleotide": "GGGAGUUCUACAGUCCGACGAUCGGAUUGUAACAGGAUUGAUGGCACUUAGGGACAUCUCAUCCAACCGGGACUUAAAUUUCACACUAGAAAUGAGCUCCAGUCUUAACUCAGUGAAUGGGAAACACAUGUUCUGGAAUUCUCGGGUGCCAA", "RBNS enrichment (R)": 0.356}
{"Oligonucleotide": "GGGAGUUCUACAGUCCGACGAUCGGGCCAAUGAUUCUUGUGUGUCAGCACUGUUACUACCGAGUGCUGAGUAAGGGCAAAAUAAUACCCCUUUCUCUAUGUAUCUCUGUAUGCACACGCACUAUAUAUAUAUAUGGAAUUCUCGGGUGCCAA", "RBNS enrichment (R)": 0.292}
{"Oligonucleotide": "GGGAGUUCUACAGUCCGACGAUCUUUGUGUGAGGCUCAGAGCAAAUGAACAAGUGCCAUUCAAGGGUUAGAAACUGCUCAGCCACAGGGUCCCAGUGUCUGAGUCUGGAAGAGUCUUUAGAGAUUUGUUCACUUGGAAUUCUCGGGUGCCAA", "RBNS enrichment (R)": 0.283}
{"Oligonucleotide": "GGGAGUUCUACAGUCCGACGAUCUUGCCUUUGCUGUUGUAUGUAAAGUUUCAAAUUGCUCCUCUUGUGACUUUUCAGCCAGUACCAUUUUAUUUACCUGAGCUUGUCAUGGAAGUGGCAGUAAAAAGUAUUGAUGGAAUUCUCGGGUGCCAA", "RBNS enrichment (R)": 0.574}
{"Oligonucleotide": "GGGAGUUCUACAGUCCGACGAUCCAAUAGCUCAGAACCCGCCUAAACUGAAGGCCUUUUGGCUGCAUGGCUACAGCUUUCAGCCACUUACGGCCCCAGCUGGACAGAGCAGUGCUGUGUGGGUACUCCAAGUGUGGAAUUCUCGGGUGCCAA", "RBNS enrichment (R)": 0.208}
{"Oligonucleotide": "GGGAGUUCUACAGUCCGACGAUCAGGUAGAAUUACUAAUACAAGGGUUAAAGAAGGUAGAUUUUGUUUUCAAUAUUUGGGUAAUAUUAGAAAGAUUCUUCCCACAGGGAAGAACUAGCAAGUGUCCCAAUUUUUGGAAUUCUCGGGUGCCAA", "RBNS enrichment (R)": 0.777}
{"Oligonucleotide": "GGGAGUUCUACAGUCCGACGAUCUUUGGAAAUACCUUCCUGGCCCCGCCCCUACCCCUUCUUUUUGGUUUUGACAUCACCCAUUUCCAACUGGGGAUCUCUGGUGCCAAGCCAGAAAGAACGAGGCAUGUAUAUGGAAUUCUCGGGUGCCAA", "RBNS enrichment (R)": 0.406}
{"Oligonucleotide": "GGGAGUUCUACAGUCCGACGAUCGGGCUGUUAAAUCGGAAAGGAUGUGGCUUCAGUGCCCUCAGGAACCCUUAGGCUCCAAAAAUUUGCCUGCCUUUGAGAGAACAACAAACAGGUCUUUUCUCUCUCCUUUAUGGAAUUCUCGGGUGCCAA", "RBNS enrichment (R)": 0.397}
{"data": "Sample 3", "target": "PABPC1L2, full length, GST fusion (mouse, UniProt A0ABA7IW68)", "technique": "RNAcompete", "molecule type": "RNA", "medium": "in vitro", "concentration": "20 nM", "notes": "7-mer, probes averaged, single round", "relative to": "mean of 7-mers", "direction": "higher = stronger binding", "Residues (chain)": "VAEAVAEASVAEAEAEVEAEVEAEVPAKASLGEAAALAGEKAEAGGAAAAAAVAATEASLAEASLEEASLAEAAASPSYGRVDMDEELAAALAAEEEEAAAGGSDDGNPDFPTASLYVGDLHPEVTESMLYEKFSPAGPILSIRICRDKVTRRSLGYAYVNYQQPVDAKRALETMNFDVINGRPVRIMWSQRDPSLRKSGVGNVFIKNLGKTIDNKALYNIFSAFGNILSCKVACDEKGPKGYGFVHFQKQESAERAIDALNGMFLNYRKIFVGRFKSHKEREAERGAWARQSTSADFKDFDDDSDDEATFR"}
{"Oligonucleotide": "CAUUUUG", "7-mer Z-score": -0.199}
{"Oligonucleotide": "CGAAGGC", "7-mer Z-score": -0.0573}
{"Oligonucleotide": "UCUUUGA", "7-mer Z-score": -0.137}
{"Oligonucleotide": "GACAAAA", "7-mer Z-score": 6.38}
{"Oligonucleotide": "AUAGUUG", "7-mer Z-score": -0.132}
{"Oligonucleotide": "UGGGCGC", "7-mer Z-score": -0.0953}
{"Oligonucleotide": "AGGCGUG", "7-mer Z-score": 0.202}
{"Oligonucleotide": "GUUGAAG", "7-mer Z-score": -0.211}
{"Oligonucleotide": "UUAUUGC", "7-mer Z-score": -0.112}
{"Oligonucleotide": "GACGGUC", "7-mer Z-score": -0.347}
{"Oligonucleotide": "UUGCUAA", "7-mer Z-score": -0.0645}
{"Oligonucleotide": "AAGAUUU", "7-mer Z-score": 0.345}
{"data": "Sample 4", "target": "Interferon regulatory factor 7, full length, phosphomimetic (IRF7, Homo sapiens, UniProt Q92985, residues 1-503, S471D/S472D/S475D/S476D/S477D/S483D/S484D/S487D)", "technique": "protein-binding microarray", "molecule type": "double-stranded DNA, one strand shown", "medium": "in vitro", "concentration": "2200 nM top", "notes": "60-bp whole probe", "together with": "salmon DNA 0.4 mg/ml", "relative to": "random background probes", "direction": "higher = stronger binding", "shared flanks, not repeated": "GCCTAGCAC … GTCTTGATTCGCTTGACGCTGCTG", "Construct (chain)": "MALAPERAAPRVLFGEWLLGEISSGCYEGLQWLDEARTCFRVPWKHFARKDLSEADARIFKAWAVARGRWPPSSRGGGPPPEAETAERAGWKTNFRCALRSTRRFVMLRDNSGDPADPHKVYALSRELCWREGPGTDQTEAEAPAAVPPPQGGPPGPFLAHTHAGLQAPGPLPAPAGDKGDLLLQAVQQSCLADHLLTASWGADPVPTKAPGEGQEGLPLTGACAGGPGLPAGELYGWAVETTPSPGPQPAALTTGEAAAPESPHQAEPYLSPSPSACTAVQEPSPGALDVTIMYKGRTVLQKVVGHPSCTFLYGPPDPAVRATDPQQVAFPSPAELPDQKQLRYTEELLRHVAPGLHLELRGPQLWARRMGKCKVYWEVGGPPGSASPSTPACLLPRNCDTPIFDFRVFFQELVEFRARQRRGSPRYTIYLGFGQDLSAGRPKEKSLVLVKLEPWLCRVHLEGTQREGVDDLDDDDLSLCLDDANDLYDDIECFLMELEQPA"}
{"Oligonucleotide": "TTAGGTATCCTTCTCCTTTTGTGCTAG", "fitted relative affinity [z-score]": 1.44}
{"Oligonucleotide": "CTGTTTTTGCTTTCCTTCTTGTGCTAG", "fitted relative affinity [z-score]": 5.88}
{"Oligonucleotide": "TTACGACTGGGACTGGGTTAGTGCTAG", "fitted relative affinity [z-score]": 0.0492}
{"Oligonucleotide": "AATCATTTTCGTTTTTATTAGTGCTAG", "fitted relative affinity [z-score]": 10.8}
{"Oligonucleotide": "TCACTTCTGGTGCTCATACTGTGCTAG", "fitted relative affinity [z-score]": 1.53}
{"Oligonucleotide": "GACGATTTCAGTTCCGCGACGTGCTAG", "fitted relative affinity [z-score]": 2.05}
{"Oligonucleotide": "GACGATATCAGTATCGACACGTGCTAG", "fitted relative affinity [z-score]": 0.391}
{"Oligonucleotide": "GACGGACTGGGCTATCGGGACGTGCTA", "fitted relative affinity [z-score]": -1.17}
{"Oligonucleotide": "TTAGATATCAGACTGAATTAGTGCTAG", "fitted relative affinity [z-score]": -0.485}
{"Oligonucleotide": "GCCGATATCGGGTATCGAGACGTGCTA", "fitted relative affinity [z-score]": 0.422}
{"Oligonucleotide": "TTAGGTTCCGACTATCGGTTAGTGCTA", "fitted relative affinity [z-score]": 0.731}
{"Oligonucleotide": "GACGAACTGGGGTATCGAGAAGTGCTA", "fitted relative affinity [z-score]": -0.0646}
{"Oligonucleotide": "GAGAAAATGATTTTTTTCATGTGCTAG", "fitted relative affinity [z-score]": -0.0599}
{"Oligonucleotide": "TTAGGTTTCCTTCTCATTTAGTGCTAG", "fitted relative affinity [z-score]": 1.74}
{"Oligonucleotide": "CTGCCTGGCCAAGCCCAGATGTGCTAG", "fitted relative affinity [z-score]": -0.915}
{"Oligonucleotide": "GACGGACTGGTGTTTCGGGACGTGCTA", "fitted relative affinity [z-score]": 0.546}
{"Oligonucleotide": "TTAGAACTGGGACTGGATTAGTGCTAG", "fitted relative affinity [z-score]": -0.612}
{"Oligonucleotide": "CCGAAAATGCCCTTTTGGTGAGTGCTA", "fitted relative affinity [z-score]": 1.76}
{"Oligonucleotide": "TTAGGACTGGGGACTCGGTTAGTGCTA", "fitted relative affinity [z-score]": -0.589}
{"note": "For quick reference, copied from above (sample 2):"}
{"Oligonucleotide": "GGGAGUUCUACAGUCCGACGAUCUUUGGAAAUACCUUCCUGGCCCCGCCCCUACCCCUUCUUUUUGGUUUUGACAUCACCCAUUUCCAACUGGGGAUCUCUGGUGCCAAGCCAGAAAGAACGAGGCAUGUAUAUGGAAUUCUCGGGUGCCAA", "RBNS enrichment (R)": 0.406}
{"Oligonucleotide": "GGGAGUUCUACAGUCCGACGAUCGGGCUGUUAAAUCGGAAAGGAUGUGGCUUCAGUGCCCUCAGGAACCCUUAGGCUCCAAAAAUUUGCCUGCCUUUGAGAGAACAACAAACAGGUCUUUUCUCUCUCCUUUAUGGAAUUCUCGGGUGCCAA", "RBNS enrichment (R)": 0.397}
{"Oligonucleotide": "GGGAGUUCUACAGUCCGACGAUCGGAUUGUAACAGGAUUGAUGGCACUUAGGGACAUCUCAUCCAACCGGGACUUAAAUUUCACACUAGAAAUGAGCUCCAGUCUUAACUCAGUGAAUGGGAAACACAUGUUCUGGAAUUCUCGGGUGCCAA", "RBNS enrichment (R)": 0.356}
{"Oligonucleotide": "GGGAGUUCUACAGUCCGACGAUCCAAUAGCUCAGAACCCGCCUAAACUGAAGGCCUUUUGGCUGCAUGGCUACAGCUUUCAGCCACUUACGGCCCCAGCUGGACAGAGCAGUGCUGUGUGGGUACUCCAAGUGUGGAAUUCUCGGGUGCCAA", "RBNS enrichment (R)": 0.208}
{"Oligonucleotide": "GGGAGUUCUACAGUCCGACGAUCUUGCCUUUGCUGUUGUAUGUAAAGUUUCAAAUUGCUCCUCUUGUGACUUUUCAGCCAGUACCAUUUUAUUUACCUGAGCUUGUCAUGGAAGUGGCAGUAAAAAGUAUUGAUGGAAUUCUCGGGUGCCAA", "RBNS enrichment (R)": 0.574}
{"Oligonucleotide": "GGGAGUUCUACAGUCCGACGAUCAGGUAGAAUUACUAAUACAAGGGUUAAAGAAGGUAGAUUUUGUUUUCAAUAUUUGGGUAAUAUUAGAAAGAUUCUUCCCACAGGGAAGAACUAGCAAGUGUCCCAAUUUUUGGAAUUCUCGGGUGCCAA", "RBNS enrichment (R)": 0.777}
